Measured values from different studies.
Every numbered part comes from another study and shows a few of its results, in no order. Substitutions count along the parent as printed.

Study 1
Target: Sal-like protein 4, full length isoform B (SALL4, Homo sapiens, UniProt Q9UJQ4-2, residues 1-616)
Technique: universal PBM
Form: double-stranded DNA, one strand shown
Matrix: in vitro
Tested at: not given
Setting: 8-mer, flanks averaged, mean of replicates
Reading: higher = stronger binding
Endpoint: E-score
Target sequence (chain): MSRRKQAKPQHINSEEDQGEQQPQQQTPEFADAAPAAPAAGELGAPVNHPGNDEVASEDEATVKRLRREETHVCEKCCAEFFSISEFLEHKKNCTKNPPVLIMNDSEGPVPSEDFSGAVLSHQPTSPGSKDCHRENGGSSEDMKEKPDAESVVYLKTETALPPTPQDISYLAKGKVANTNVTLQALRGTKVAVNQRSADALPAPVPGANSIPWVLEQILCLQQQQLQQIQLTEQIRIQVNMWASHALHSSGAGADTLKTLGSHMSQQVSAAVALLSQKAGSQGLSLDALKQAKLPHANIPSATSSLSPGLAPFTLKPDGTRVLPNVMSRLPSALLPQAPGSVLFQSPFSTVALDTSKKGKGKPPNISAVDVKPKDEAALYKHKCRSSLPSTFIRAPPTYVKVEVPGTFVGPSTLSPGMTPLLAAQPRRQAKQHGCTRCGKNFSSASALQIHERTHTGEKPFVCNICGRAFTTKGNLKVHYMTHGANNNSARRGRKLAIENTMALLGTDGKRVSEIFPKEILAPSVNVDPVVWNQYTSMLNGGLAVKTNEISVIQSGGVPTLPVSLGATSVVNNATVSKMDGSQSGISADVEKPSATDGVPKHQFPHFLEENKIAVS
TCGTCAGA: -0.0693
AGCGGGGG: -0.229
ACCTGTCT: -0.102
ACACCCCG: -0.307
CCCGCCAA: -0.0804
ACGTAAAA: 0.269
AAGTCCGG: -0.175
AGTCGCTC: -0.131
GGTCAAAC: -0.0657
ACTAACTC: 0.0661
AAGCCCTA: 0.102
ATCGCTCG: -0.0832
AGCTTGAG: -0.254
CTGACAGA: -0.0086
CTCACGAG: -0.2
AGGGATTC: -0.2
TCCTTTAA: 0.126
AGCCCACA: -0.0667
ACACCTCT: -0.163
CGACAATC: -0.129
AGTGGCGG: -0.15
TCTATGAA: 0.28
CGACGCCG: -0.325
CGATCGTA: -0.0334
CTGTATGA: 0.233

Study 2
Target: TAR DNA-binding protein 43, full length, His tag (TARDBP, Homo sapiens, UniProt Q13148, residues 1-414)
Technique: RNA Bind-n-Seq
Form: RNA
Matrix: in vitro
Tested at: 20 nM
Setting: 6-mer, flanks averaged, single round
Added: 150 mM KCl
Baseline: input library
Reading: higher = stronger binding
Endpoint: 6-mer enrichment (R)
CGUUGC: 0.739
CCACUC: 0.589
GCAAGC: 0.927
GCUCUA: 0.612
AACAUG: 0.712
ACUAUC: 0.545
CAAAGG: 1.1
CACGGA: 0.936
AUCUAU: 0.551
UAUUCA: 0.557
UCGAUU: 0.554
GGUUGA: 1.41
GACCCU: 0.683
UUAUGU: 0.728
GCGAAC: 0.928
AUUCGG: 0.816

Study 3
Target: Interferon regulatory factor 5, full length, phosphomimetic (IRF5, Homo sapiens, UniProt Q13568-2, residues 1-514, S451D/S453D/S456D/S462D)
Technique: protein-binding microarray
Form: double-stranded DNA, one strand shown
Matrix: in vitro
Tested at: 940 nM top
Setting: 60-bp whole probe
Added: salmon DNA 0.4 mg/ml
Baseline: random background probes
Reading: higher = stronger binding
Endpoint: fitted relative affinity
Shared flanks, not repeated: GCCTAGCAC … GTCTTGATTCGCTTGACGCTGCTG
TCCTCTCTCTATTCAGAGGAGTGCTAG: 4.19 z-score
GACGAACTGGGGACTGAAGACGTGCTA: 0.114 z-score
TCAGTTTTGTGTGTGTGACTGTGCTAG: 0.772 z-score
TCACATCTTCCTCTGCCACTGTGCTAG: 1.22 z-score
TCATTTTTCATCATTGCACTGTGCTAG: 1.08 z-score
GGCACCCAAGCTCTTGTTTGGTGCTAG: -0.325 z-score
GAAGGTTTCGACTATCGGGACGTGCTA: 6.81 z-score
AACGATTTCGGGTATCGAGACGTGCTA: 1.95 z-score
TTAGGTATCCTTCTCCTGTAGTGCTAG: 0.871 z-score
TTAGATATCAGTTTCGATTCGTGCTAG: 7.87 z-score
GACGATATCGGGACTGGATACGTGCTA: -0.126 z-score
TTAGATTTCAGGTTTCGATTAGTGCTA: 5.84 z-score
GACGCACTGAGTTTCGAGACGTGCTAG: 3.27 z-score
TTAGGTATCGATTTTCGGTTAGTGCTA: 7.2 z-score
GACGGTTTGGGTTTCGGGACGTGCTAG: 3.77 z-score
TTAGGTATCGGTTTAGGTTAGTGCTAG: 10.6 z-score
GACGGACTGCTGCTCCTGACGTGCTAG: -0.256 z-score
TTTTAAAATGGACACTGTACAGTGCTA: -0.349 z-score
GACGAACTGAGCTTCGAGACGTGCTAG: -0.657 z-score

Study 4
Target: ABI1, truncated, D143A, DHFR fusion (Arabidopsis thaliana)
Technique: DHFR PCA, deep sequencing
Matrix: yeast
Setting: methotrexate growth selection, single substitutions
Added: (+)-ABA 1.4 µM
Baseline: wild-type fitted maximum
Reading: higher = stronger binding
Endpoint: relative binding score
Starting sequence: PYL1, truncated, DHFR fusion (Arabidopsis thaliana); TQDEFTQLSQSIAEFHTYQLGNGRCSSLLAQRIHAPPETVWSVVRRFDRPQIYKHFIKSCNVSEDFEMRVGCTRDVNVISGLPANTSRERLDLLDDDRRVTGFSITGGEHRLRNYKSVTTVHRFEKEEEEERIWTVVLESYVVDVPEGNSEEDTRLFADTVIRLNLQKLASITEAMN; partner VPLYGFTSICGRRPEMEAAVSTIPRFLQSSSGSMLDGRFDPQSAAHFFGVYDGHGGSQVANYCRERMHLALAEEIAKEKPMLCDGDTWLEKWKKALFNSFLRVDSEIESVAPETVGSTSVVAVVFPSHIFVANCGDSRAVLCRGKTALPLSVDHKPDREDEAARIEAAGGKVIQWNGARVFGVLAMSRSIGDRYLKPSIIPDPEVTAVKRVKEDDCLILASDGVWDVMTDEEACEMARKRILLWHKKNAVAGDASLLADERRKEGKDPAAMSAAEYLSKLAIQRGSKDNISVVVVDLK
L91W: 4.53%
S140D: 4.81%
R155Q: 21%
V121R: -5.1%
T160Y: 32.1%
V136P: 4.8%
S27C: 10.6%
H55S: 73.8%
V40P: 2.67%
R46H: 3.56%
K126E: 68.8%
N61A: 62.9%
V44N: -19.6%
R24P: -6.82%
R46M: 16.1%
R155T: 40.7%
L166F: -8.64%
K168I: 8.23%
R32C: 42.5%

Repeated from above (study 1):
AGTCGCTC: -0.131
ATCGCTCG: -0.0832
TCCTTTAA: 0.126
AGGGATTC: -0.2
CGACAATC: -0.129
GGTCAAAC: -0.0657
AGCCCACA: -0.0667
ACTAACTC: 0.0661
ACACCTCT: -0.163
